Assay results collected from several papers.
Every numbered part comes from another study and shows a few of its results, in no order. Several values in a cell are separate wells, animals, samples, runs or records.
Sequence of UniProt Q9UKE5 (whole entry, looked up): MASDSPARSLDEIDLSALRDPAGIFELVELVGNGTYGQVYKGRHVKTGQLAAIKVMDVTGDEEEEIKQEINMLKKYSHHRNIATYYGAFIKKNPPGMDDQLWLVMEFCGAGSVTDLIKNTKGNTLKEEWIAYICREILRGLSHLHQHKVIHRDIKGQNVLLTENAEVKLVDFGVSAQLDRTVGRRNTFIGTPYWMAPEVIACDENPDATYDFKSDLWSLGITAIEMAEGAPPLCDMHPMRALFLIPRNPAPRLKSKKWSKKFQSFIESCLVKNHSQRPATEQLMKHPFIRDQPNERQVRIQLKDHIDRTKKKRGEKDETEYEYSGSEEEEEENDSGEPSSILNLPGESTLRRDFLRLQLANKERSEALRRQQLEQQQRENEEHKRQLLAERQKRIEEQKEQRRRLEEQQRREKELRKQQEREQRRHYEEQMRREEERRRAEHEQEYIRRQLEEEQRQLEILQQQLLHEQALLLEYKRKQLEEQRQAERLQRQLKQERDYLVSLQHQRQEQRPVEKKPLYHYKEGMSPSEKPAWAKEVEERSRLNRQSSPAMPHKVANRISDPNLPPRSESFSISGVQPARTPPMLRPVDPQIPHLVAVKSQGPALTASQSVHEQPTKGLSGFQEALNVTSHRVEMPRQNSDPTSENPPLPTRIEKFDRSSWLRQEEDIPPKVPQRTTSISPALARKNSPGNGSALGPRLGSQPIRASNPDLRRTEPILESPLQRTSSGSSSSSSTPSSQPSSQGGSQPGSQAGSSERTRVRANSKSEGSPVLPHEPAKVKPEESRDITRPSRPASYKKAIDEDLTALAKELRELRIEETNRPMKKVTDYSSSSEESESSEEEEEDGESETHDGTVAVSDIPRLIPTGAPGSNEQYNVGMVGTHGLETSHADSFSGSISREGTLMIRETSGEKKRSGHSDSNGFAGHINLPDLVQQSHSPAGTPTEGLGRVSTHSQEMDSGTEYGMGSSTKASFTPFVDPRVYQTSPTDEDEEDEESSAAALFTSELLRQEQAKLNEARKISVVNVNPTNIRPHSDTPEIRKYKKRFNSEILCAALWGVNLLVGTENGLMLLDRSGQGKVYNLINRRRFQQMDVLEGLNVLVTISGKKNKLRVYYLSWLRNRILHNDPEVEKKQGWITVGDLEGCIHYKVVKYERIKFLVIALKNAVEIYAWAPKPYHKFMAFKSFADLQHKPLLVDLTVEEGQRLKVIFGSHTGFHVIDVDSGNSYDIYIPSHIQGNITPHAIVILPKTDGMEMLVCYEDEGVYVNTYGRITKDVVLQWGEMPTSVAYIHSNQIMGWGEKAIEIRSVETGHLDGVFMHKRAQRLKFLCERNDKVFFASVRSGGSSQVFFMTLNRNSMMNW
Sequence of UniProt P57059 (whole entry, looked up): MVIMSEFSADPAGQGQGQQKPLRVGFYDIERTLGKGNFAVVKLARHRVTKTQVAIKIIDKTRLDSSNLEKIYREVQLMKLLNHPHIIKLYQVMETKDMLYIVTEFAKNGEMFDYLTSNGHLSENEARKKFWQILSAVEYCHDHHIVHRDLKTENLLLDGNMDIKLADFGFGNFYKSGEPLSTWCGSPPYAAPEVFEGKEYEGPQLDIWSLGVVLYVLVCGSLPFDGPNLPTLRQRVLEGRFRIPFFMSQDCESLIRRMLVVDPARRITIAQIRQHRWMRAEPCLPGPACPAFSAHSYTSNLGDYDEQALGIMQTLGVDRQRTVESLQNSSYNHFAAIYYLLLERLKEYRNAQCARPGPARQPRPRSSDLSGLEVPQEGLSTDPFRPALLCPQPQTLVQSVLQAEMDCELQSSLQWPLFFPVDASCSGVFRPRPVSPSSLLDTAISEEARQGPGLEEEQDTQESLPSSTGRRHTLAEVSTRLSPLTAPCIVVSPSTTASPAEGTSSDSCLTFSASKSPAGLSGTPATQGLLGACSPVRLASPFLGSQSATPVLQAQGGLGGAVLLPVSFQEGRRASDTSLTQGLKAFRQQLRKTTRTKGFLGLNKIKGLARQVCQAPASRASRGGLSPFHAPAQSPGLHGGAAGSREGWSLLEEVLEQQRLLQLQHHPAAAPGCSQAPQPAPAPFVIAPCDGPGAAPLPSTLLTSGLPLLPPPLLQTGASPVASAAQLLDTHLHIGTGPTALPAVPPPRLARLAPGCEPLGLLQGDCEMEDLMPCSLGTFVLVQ
Sequence of UniProt P00519 (whole entry, looked up): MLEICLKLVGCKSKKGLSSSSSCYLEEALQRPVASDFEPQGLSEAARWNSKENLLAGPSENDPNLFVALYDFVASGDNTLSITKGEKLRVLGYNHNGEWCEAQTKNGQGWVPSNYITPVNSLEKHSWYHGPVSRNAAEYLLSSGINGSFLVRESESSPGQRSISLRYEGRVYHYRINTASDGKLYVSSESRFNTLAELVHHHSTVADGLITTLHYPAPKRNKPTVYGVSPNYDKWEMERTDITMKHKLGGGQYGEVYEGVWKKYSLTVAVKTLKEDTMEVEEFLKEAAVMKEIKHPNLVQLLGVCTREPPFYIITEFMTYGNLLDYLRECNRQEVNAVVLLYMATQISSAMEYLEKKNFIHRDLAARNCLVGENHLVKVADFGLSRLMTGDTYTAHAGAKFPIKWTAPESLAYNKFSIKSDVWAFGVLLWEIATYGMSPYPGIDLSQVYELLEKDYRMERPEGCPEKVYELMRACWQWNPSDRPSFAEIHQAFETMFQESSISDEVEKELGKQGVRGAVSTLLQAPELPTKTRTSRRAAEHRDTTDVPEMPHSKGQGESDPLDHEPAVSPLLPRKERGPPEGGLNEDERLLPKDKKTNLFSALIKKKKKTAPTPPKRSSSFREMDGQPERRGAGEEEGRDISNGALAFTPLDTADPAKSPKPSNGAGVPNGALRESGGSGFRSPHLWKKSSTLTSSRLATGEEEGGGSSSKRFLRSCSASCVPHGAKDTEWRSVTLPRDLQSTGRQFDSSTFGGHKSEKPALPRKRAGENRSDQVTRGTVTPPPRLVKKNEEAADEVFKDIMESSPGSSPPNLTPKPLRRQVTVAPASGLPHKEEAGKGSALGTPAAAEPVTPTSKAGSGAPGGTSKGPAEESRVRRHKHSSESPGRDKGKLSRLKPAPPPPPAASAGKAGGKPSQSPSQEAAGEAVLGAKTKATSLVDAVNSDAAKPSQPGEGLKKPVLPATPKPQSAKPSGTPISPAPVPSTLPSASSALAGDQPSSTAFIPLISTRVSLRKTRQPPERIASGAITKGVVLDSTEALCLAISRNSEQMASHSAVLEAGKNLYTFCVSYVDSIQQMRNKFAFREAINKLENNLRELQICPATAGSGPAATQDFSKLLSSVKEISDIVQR
Sequence of UniProt Q12851 (whole entry, looked up): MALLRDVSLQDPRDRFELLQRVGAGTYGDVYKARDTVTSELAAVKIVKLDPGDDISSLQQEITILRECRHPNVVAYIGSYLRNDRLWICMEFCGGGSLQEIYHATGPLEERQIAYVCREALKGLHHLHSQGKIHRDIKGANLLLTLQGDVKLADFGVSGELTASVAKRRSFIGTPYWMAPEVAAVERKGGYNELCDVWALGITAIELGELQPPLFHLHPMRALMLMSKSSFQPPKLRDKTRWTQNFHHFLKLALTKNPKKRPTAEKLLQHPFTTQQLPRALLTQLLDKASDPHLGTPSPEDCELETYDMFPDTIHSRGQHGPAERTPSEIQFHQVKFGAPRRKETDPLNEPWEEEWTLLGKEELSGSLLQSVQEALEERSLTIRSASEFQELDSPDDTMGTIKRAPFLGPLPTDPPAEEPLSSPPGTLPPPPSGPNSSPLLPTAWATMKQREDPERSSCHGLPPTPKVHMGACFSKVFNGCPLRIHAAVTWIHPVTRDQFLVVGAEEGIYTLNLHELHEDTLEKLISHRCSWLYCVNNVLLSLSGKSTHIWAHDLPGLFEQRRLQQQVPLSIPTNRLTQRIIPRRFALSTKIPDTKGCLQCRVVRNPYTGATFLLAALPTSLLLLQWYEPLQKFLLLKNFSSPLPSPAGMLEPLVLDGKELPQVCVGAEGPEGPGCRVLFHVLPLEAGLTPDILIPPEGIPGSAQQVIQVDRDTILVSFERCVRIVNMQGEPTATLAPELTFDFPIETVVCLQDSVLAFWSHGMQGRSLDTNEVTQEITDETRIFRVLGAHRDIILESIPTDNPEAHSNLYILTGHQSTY
Sequence of UniProt Q8WU08 (whole entry, looked up): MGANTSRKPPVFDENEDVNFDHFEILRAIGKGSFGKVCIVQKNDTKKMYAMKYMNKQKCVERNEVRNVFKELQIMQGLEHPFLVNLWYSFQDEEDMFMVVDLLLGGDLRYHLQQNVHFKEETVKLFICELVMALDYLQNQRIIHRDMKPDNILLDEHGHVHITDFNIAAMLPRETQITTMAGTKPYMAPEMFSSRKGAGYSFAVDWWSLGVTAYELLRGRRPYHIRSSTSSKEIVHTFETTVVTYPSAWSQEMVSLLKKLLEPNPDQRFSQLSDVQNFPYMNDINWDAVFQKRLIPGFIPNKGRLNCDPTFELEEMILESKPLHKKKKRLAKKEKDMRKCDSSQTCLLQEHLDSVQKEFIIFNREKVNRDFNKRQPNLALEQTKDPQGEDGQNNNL

Set 1 — mode: inhibitor; tested at: 1 µM
Compound: C=CC(=O)N1CCC[C@@H](n2nc(-c3ccc(Oc4ccccc4)cc3)c3c(N)ncnc32)C1
| target | test | inhibition |
| --- | --- | --- |
| GSK3A (Homo sapiens, UniProt P49840) |  | 6% |
| TNIK (Homo sapiens, UniProt Q9UKE5) | enzyme activity | 5% |
| EPHA7 (Homo sapiens, UniProt Q15375) | enzyme activity | 7% |
| MAP2K5 (Homo sapiens, UniProt Q13163) |  | 100% |
| NEK9 (Homo sapiens, UniProt Q8TD19) | enzyme activity | 8% |
| TRPM6 (Homo sapiens, UniProt Q9BX84) |  | 15% |
| RPS6KB1 (Homo sapiens, UniProt P23443) | enzyme activity | 20% |
| DAPK1 (Homo sapiens, UniProt P53355) | enzyme activity | 20% |
| FLT3 (Homo sapiens, UniProt P36888, R834Q) |  | 54% |
| PIK3CG (Homo sapiens, UniProt P48736) | enzyme activity | 26% |
| NEK6 (Homo sapiens, UniProt Q9HC98) | enzyme activity | 13% |
| Aurora kinase C (AURKC, Homo sapiens, UniProt Q9UQB9) | enzyme activity | 17% |
| MAP4K2 (Homo sapiens, UniProt Q12851) | enzyme activity | 38% |
| RIPK2 (Homo sapiens, UniProt O43353) | enzyme activity | 96% |
| MAP2K2 (Homo sapiens, UniProt P36507) | enzyme activity | 81% |

Set 2 — tested at: 1 µM
SMILES: CCOCCn1cc(C(=O)Nc2ccc(-n3nc(-c4cccnc4)cc3C(F)(F)F)cn2)ccc1=O
| target | test | remaining binding |
| --- | --- | --- |
| IKBKE (Homo sapiens, UniProt Q14164) | cell-free assay, competition with immobilised ligand | 79% |
| SIK1 (Homo sapiens, UniProt P57059) | competition binding | 100% |
| MKNK1 (Homo sapiens, UniProt Q9BUB5) | cell-free assay, competition with immobilised ligand | 97% |
| ERBB4 (Homo sapiens, UniProt Q15303) | cell-free assay, competition with immobilised ligand | 100% |
| STK32A (Homo sapiens, UniProt Q8WU08) | cell-free assay, competition with immobilised ligand | 96% |
| WEE2 (Homo sapiens, UniProt P0C1S8) | cell-free assay, competition with immobilised ligand | 100% |
| PRKX (Homo sapiens, UniProt P51817) | cell-free assay, competition with immobilised ligand | 100% |
| PRKG2 (Homo sapiens, UniProt Q13237) | cell-free assay, competition with immobilised ligand | 100% |
| CDK11A (Homo sapiens, UniProt Q9UQ88) | binding, competition with immobilised ligand | 100% |
| ROCK2 (Homo sapiens, UniProt O75116) | cell-free assay, competition with immobilised ligand | 88% |
| FLT3 (Homo sapiens, UniProt P36888, ITD) | cell-free assay, competition with immobilised ligand | 79% |
| CAMK1 (Homo sapiens, UniProt Q14012) | cell-free assay, competition with immobilised ligand | 100% |
| Aurora kinase B (AURKB, Homo sapiens, UniProt Q96GD4) | cell-free assay, competition with immobilised ligand | 100% |
| STK39 (Homo sapiens, UniProt Q9UEW8) | cell-free assay, competition with immobilised ligand | 100% |
| TNNI3K (Homo sapiens, UniProt Q59H18) | cell-free assay, competition with immobilised ligand | 100% |
| Tyrosine-protein kinase ABL1, phosphorylated (ABL1, Homo sapiens, UniProt P00519) | cell-free assay, competition with immobilised ligand | 61% |
| CDK14 (Homo sapiens, UniProt O94921) | cell-free assay, competition with immobilised ligand | 100% |
| CAMK2B (Homo sapiens, UniProt Q13554) | cell-free assay, competition with immobilised ligand | 90% |
| FLT3 (Homo sapiens, UniProt P36888, K663Q) | cell-free assay, competition with immobilised ligand | 98% |

Set 3 — matrix: plasma
Compound: O=C1CCC(N2Cc3cc(C4CCN(Cc5ccccc5)CC4)ccc3C2=O)C(=O)N1 (stereo not shown)
| system | conditions | plasma concentration |
| --- | --- | --- |
| ICR mouse, male | intravenous, 1 mg/kg, 0.5 h | 98.3 ng/mL and 124 ng/mL |
| male Sprague Dawley rats | oral, 3 mg/kg, 6 h | 12.3 ng/mL |
| ICR mouse, male | intravenous, 1 mg/kg, 2 h | 41 ng/mL and 46.3 ng/mL |
| ICR mouse, male | oral, 3 mg/kg, 1 h | 223 ng/mL and 259 ng/mL |
| Sprague Dawley rat, male | oral, 3 mg/kg, 0.25 h | 20.4 ng/mL and 13.9 ng/mL and 40.1 ng/mL |
| male Sprague Dawley rats | oral, 3 mg/kg, 4 h | 44.2 ng/mL |
| ICR mouse, male | oral, 3 mg/kg, 6 h | 12.7 ng/mL and 8.43 ng/mL |
| Sprague Dawley rat, male | oral, 3 mg/kg, 4 h | 68.4 ng/mL and 72.9 ng/mL |
| male ICR mice | oral, 3 mg/kg, 2 h | 119 ng/mL |
| Sprague Dawley rat, male | oral, 3 mg/kg, 1 h | 68.1 ng/mL and 61.4 ng/mL |

Set 4 — observed: enzyme activity; mode: inhibitor; tested at: 0.5 µM; baseline: control
Target: RAC-gamma serine/threonine-protein kinase (AKT3, Homo sapiens, UniProt Q9Y243)
Sequence of UniProt Q9Y243 (whole entry, looked up): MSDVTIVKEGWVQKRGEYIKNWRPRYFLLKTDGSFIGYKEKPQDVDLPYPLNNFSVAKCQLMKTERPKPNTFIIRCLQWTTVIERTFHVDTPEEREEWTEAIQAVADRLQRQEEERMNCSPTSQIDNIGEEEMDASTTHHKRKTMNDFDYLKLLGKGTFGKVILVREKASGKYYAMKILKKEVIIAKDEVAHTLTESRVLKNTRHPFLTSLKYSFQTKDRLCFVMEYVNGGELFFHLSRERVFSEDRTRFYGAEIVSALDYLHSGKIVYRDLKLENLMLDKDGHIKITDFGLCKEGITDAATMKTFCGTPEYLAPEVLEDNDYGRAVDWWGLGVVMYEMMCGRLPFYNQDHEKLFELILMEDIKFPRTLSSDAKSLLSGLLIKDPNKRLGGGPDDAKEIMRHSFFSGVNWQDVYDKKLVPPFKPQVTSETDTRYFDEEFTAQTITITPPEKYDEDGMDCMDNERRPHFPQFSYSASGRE
| SMILES | remaining activity [%] |
| --- | --- |
| Cc1cc2ncc(-c3ccccc3)nc2cc1C | 91.8 |
| CCOc1nc(NC(=O)Cc2cc(OC)ccc2OC)cc(N)c1C#N | 105 |
| O=C(NC(NC(=S)Nc1ccc(F)c([N+](=O)[O-])c1)C(Cl)(Cl)Cl)C(c1ccccc1)c1ccccc1 (stereo not shown) | 106 |
| COc1cc2ncnc(Nc3ccc(O)c(Br)c3)c2cc1OC | 101 |
| Cc1nc2cc3nc(-c4cccs4)cnc3cc2n1C | 112 |
| Ic1cccc(CSc2nnc(-c3ccncc3)o2)c1 | 90.7 |
| O=C(Nc1cccc(Nc2nccc(Nc3cccc(C(F)(F)F)c3)n2)c1)C1CC1 | 108 |
| CCN(CC)CCNC(=O)c1c(C)[nH]c(/C=C2\C(=O)Nc3ccc(Cl)cc32)c1C | 84.2 |
| O=C1c2ccccc2-c2n[nH]c3cccc1c23 | 97 |
| O=C1C(Cl)=C(N2C(=O)CCC2=O)C(=O)c2ccccc21 | 105 |
| CN(C)C[C@H]1CCn2c(c(C3=C(c4cn(C)c5ccccc45)C(=O)NC3=O)c3ccccc32)C1 | 56.3 |

Some of these lines once more (set 1):
| target | test | inhibition |
| --- | --- | --- |
| GSK3A (Homo sapiens, UniProt P49840) |  | 6% |
| TNIK (Homo sapiens, UniProt Q9UKE5) | enzyme activity | 5% |
| EPHA7 (Homo sapiens, UniProt Q15375) | enzyme activity | 7% |
| MAP2K5 (Homo sapiens, UniProt Q13163) |  | 100% |
| NEK9 (Homo sapiens, UniProt Q8TD19) | enzyme activity | 8% |
| TRPM6 (Homo sapiens, UniProt Q9BX84) |  | 15% |
